Measured values collected from several papers.
Each numbered part is a random draw from the data of one study; scales do not carry over between parts.

Study 1 — method: aptamer microarray, sandwich; molecule type: DNA with 2'F-ANA; sample: in vitro; tested at: 200 nM; with: Cy3 exosite-II aptamer, 400 nM; reading: higher = stronger binding; oligonucleotide: GGTTGGTGTGGTTGG
Target: Prothrombin, mature alpha-thrombin (F2, Homo sapiens, UniProt P00734)
Setting: whole 15-mer aptamer, many near background
Modification | mean fluorescence intensity [a.u.]
2'F-ANA at 4 8 9 11 12 13 14 | 91.5
2'F-ANA at 1 2 4 5 8 9 10 14 | 69
2'F-ANA at 2 3 5 6 10 12 13 14 15 | 76
2'F-ANA at 1 2 10 12 13 14 15 | 77.1
2'F-ANA at 2 5 6 7 8 9 11 14 | 46.3
2'F-ANA at 5 8 11 12 | 142
2'F-ANA at 4 8 10 11 12 13 14 15 | 58
2'F-ANA at 5 6 7 8 9 10 11 12 14 15 | 51.7
2'F-ANA at 2 3 7 8 9 10 12 14 | 268
2'F-ANA at 1 2 3 6 7 8 9 11 13 15 | 146
2'F-ANA at 3 4 7 8 13 14 15 | 344
2'F-ANA at 4 6 8 9 10 11 13 14 | 62.6
2'F-ANA at 1 2 4 5 9 12 14 15 | 62.2
2'F-ANA at 1 4 6 7 9 12 | 217
2'F-ANA at 1 2 4 6 11 12 13 14 | 54.1
2'F-ANA at 1 4 5 7 8 9 10 11 13 | 47.5

Study 2 — method: RNA Bind-n-Seq; molecule type: RNA; sample: in vitro; tested at: 1 µM; setting: whole 134-nt RNA, ends assumed; with: 150 mM KCl; relative to: input library; reading: higher = stronger binding
Target: Ras GTPase-activating protein-binding protein 1, RRM domain (G3BP1, Homo sapiens, UniProt Q13283)
Chain of UniProt Q13283 (whole entry, looked up): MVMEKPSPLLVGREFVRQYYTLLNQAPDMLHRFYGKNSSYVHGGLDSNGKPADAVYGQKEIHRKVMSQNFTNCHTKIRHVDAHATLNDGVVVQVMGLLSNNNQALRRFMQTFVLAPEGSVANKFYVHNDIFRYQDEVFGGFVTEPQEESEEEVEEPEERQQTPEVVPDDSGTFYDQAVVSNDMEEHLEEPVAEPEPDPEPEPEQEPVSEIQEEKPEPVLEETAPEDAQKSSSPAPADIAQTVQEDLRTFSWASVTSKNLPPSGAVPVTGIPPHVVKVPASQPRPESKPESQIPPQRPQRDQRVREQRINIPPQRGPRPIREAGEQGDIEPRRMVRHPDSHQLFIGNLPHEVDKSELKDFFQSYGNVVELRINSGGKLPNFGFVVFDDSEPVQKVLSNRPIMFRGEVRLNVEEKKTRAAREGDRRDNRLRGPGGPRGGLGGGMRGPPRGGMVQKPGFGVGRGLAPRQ
Constant ends, left off below: GGGAGUUCUACAGUCCGACGAUC … UGGAAUUCUCGGGUGUCAAGG
Oligonucleotide | log2 enrichment
ACCAUGCAGGUGGGCAAAUUUGGGAAGUGGGGCAAGGGGGGGAUAGGGAGGGGGGUAACACUUUGGGAACAGGUGGUCCCAGGUCGUUUC | -0.417
UCCUGUGCUACACAUCGUAUGUACCGAAUCGGGGUGGGGAAAAAGGGGUUUUUUUGGGGAAAGUAUUAUGUUACGCCGUUCGGAUCUGCA | 0.814
CAAGUCCUGUGCUACACAUCGUAUGUACCGAAUCGGAAAAAGGAAAAAAAGGUGGAAAGUAUUAUGUUACGCCGUUCGGAUCUGCACUUC | -0.133
CAAGUCCUGUGCUACACAUCGUAUGUACCGAAUCGGGGUUGGGUUGGGGUUGGGGAAAGUAUUAUGUUACGCCGUUCGGAUCUGCACUUC | 1.07
AAGUCCUGUGCUACACAUCGUAUGUACCGAAUCGGAAAGGAAAAAAAGGUUUUUGGAAAGUAUUAUGUUACGCCGUUCGGAUCUGCACUU | -0.165
GCAGGAAGUAAAAACAAAUGGAAAUGCUUCGGAUAGUGGCAGGGGUGGGGGUUGCUAAGGAAAGGGUGGGAUGGGACUGGGUAAAGAGUU | 0.969
UGUUGAAAUGGGACAGUUGGCAGCGGCUCUGAUGAGCCCGAGAAGAGGCCUGCCCUUGGGUGCGGAGUCUCCCUCCGCACGAUGCUCCCA | -0.61
ACCAUGCAGGUGGGCAUCUUUGGGAAGUGGGGCAAGGGGGGGAUAGAGAGGGGGGUAACACUUUGGGAACAGGUGGUCCCAGGUCGUUUC | 1.02
UCCUGUGCUACACAUCGUAUGUACCGAAUCGGGGUUUUUGGGGAAAGGGGAAAAAGGGGAAAGUAUUAUGUUACGCCGUUCGGAUCUGCA | 0.821
UGGCCCUGGUGGCAUGCGGGGAGGAAGAGGUGGCCUCAUGGAUCGUGGUGGUCCCGGUGGAAUGUUCAGAGGUGGCAGUGGUGGAGACAG | 1.45
CUGUGCUACACAUCGUAUGUACCGAAUCGGGGCCCCCCCGGCCCCCCCGGGCCCCCCCGGGGAAAGUAUUAUGUUACGCCGUUCGGAUCU | -0.667
UCAAGUCCUGUGCUACACAUCGUAUGUACCGAAUCGGUGGUUUUUUUGGUUUGGAAAGUAUUAUGUUACGCCGUUCGGAUCUGCACUUCC | -0.26
UCCUGUGCUACACAUCGUAUGUACCGAAUCGGGGUGGGGUUUUUGGGGUUUUUUUGGGGAAAGUAUUAUGUUACGCCGUUCGGAUCUGCA | 0.686
UAACUUUAGAGGAGGAUCUGAUGGAUAUGGCAGUGGACGUGGAUUUGGGGAUGGCUAUAAUGGGUAUGGAGGAGGACCUGGAGGAGGCAA | -0.414

Study 3 — method: RNA Bind-n-Seq; molecule type: RNA; sample: in vitro; tested at: 365 nM; relative to: no-protein control; reading: higher = stronger binding
Target: RNA binding protein fox-1 homolog 2, RRM domain, GST-SBP tag (RBFOX2, Homo sapiens, UniProt O43251-10, residues 100-194)
Setting: natural RNA segment, single round, ends assumed
Constant ends, left off below: GGGAGUUCUACAGUCCGACGAUC … UGGAAUUCUCGGGUGCCAA
Residues (chain): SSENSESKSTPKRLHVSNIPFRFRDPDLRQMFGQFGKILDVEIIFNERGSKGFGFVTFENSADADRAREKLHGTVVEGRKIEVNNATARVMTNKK
Oligonucleotide | RBNS enrichment (R)
CAUUCGAAUGGGAGAAAAAGCAAAUCGCACAAUGACAUAUUUUGAGUAAUAACCGUAUUUUUCACAGGGUGACAAAUUGGGCCAAUAAAUCUGCCAUCUUUGAACUCAUC | 0.374
ACACUGUAUACUUGUUUCUCUCCAAAGCGAAAUUAAGUAUUUAUAAUUUCAAUUGCCUCGAUAAGUUUCCAAGUCACUGAAAUCUGCUGAAGGUUUUACUGUAUUGUUGC | 0.592
GCCAGAAGCAUAAAAUGUGAUGAAGGUUUCUCCUGGGAACCUUAUUUUACUCUUCAUUUCAGGGUUUUCUUUUUUUUUUUACCUUCAAAGGUAGACAUUUUGGGAAUCAU | 0.846
AAUAUUACCUCAGAUACCUGUUGUCACUCUUCACAGGUUAUUUAAGUUUUUGAAGCUGGGAGGAAAAAGAUGGAGUAGCUUGGAAAGAUUCCAGCACUGAGCCGUGGGCC | 0.668
GAUCCAAGGCUGUUGGGCCUCUCAAGAUUUGAGAACCACAAAGCAGGAGGUGAGCAUAUUCUCUUGGUGCAGCUCCCAGCUUCAGACCUGCUGAGGGACCCUUCAACUGG | 0.526
ACCGUCCUCUUUUUCCAUCAUAAUUCUAAUCUAACAAUGGAAGAUUUGCCCAUUUACACUUUUGAGACUUUUUGGUGGAUGUAAAUAACCCCAUUCUUUGCUUGAACACA | 0.435
UGACAGACUGGAAUAUUUCUUAGGCAAUGCAAGGCAAACAUUCACAUGAUCCACCGUUUUAACACCUCAGUCUUUGGUAGGAUGAAAUAAUAAAUGAAGAUGCCUAAAAU | 0.409
UAUUGAAAGGACGCCUCAGAAAUGCUUUGUUUUCUUUUACGAUGUAUUCAGAAGCCUUUACUGAUUAAAGUUUUCUUUUAUUUGGGUGGCCGGGAGAGACCCAGGGAGGU | 0.884
GGUGGGCCAACCCUCAUGUCCCCCACUCCCUUGCAUUAUUUCUUUGUGUCUUGUUCAGGAGAAAAGAGGGCCUUGUUACUUUCCACUUCUCAAUAAAUGUUUGUUAUUCC | 12.7
CCUGACGGGCAGCUGAGGAUUGCAGAGCCUGUCUGCCUUACGGCCAGUCGGACAGACGUCCCGCCACCCACCACCCCUCACAGGACGUCCGCUCAGCACACGCCUUGUUA | 0.616
GAAUCUUUCUCUAGGGCACCUGGGCUCACAGCCUCCCUGGGCUCGGUUGUUCCUGCUGCCAAGUGCUCUGUGACCAUGGCCUUUGCCUAGUGGAGGGAACUCAGUGGAGG | 0.328
UUGGAUCUGUGAACCCUGUACUGCGAGAAUCACAUAGUUCCAUAUAAGUUGUCCUUAGUCUCUUGUGCUGAUUCACUGUAUAAGCAUGAUCCUGGUAAUGCACUUUGGAU | 2.7

Study 4 — method: protein-binding microarray; molecule type: double-stranded DNA, one strand shown; sample: in vitro; tested at: 2200 nM top; setting: 60-bp whole probe; with: salmon DNA 0.4 mg/ml; relative to: random background probes; reading: higher = stronger binding; constant ends, left off below: GCCTAGCAC … GTCTTGATTCGCTTGACGCTGCTG
Target: Interferon regulatory factor 7, full length, phosphomimetic (IRF7, Homo sapiens, UniProt Q92985, residues 1-503, S471D/S472D/S475D/S476D/S477D/S483D/S484D/S487D)
Chain of UniProt Q92985 (whole entry, unmodified, looked up): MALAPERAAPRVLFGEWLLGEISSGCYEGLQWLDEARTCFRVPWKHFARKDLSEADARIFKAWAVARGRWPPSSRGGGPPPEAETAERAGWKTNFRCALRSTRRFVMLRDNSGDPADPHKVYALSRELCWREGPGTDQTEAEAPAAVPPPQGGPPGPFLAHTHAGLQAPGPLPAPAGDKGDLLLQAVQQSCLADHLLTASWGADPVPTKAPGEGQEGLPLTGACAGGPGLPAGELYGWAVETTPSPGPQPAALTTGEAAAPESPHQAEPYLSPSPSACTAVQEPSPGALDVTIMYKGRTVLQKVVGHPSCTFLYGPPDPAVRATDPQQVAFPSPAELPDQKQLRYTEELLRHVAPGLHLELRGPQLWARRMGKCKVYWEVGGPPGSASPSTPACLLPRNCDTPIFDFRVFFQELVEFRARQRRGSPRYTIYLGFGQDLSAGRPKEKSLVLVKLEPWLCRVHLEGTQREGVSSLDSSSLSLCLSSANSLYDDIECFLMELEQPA
Oligonucleotide | fitted relative affinity
GTGTATATATAATATATATTCGTGCTA | 0.904 z-score
TTAGGTATCGGTATCGGATAGTGCTAG | 0.687 z-score
CTAGATTTCGGGACTGGATTAGTGCTA | 1.36 z-score
TTAGGTATCGATACTGGGTTAGTGCTA | 0.203 z-score
TTAGGTTTCGGTCTCGGTTCGTGCTAG | 7.52 z-score
TCCTGTATGGATGTGTCTTAGTGCTAG | 0.844 z-score
CTTCCTCTTTCTCTGCTACCGTGCTAG | 3.22 z-score
TCACTTTTGGCTTTCCTACTGTGCTAG | 4.56 z-score
TCATTTTTCATTGTTTTACTGTGCTAG | 2.56 z-score
CCGAGTCCCTATCTCCTCACGTGCTAG | 1.21 z-score
CAAAACATCATTGTCATATAGTGCTAG | -0.0158 z-score
CATCATTGCTTTCTCTTTCAGTGCTAG | 4.6 z-score
AAGCTCCTATCTTATGATATAGTGCTA | 0.227 z-score
TCAGTTTCCCCTATTTAACTGTGCTAG | 3.45 z-score
CCTAGTTTTACTTTCTATGTGTGCTAG | 3.93 z-score
GATGAACTGGGGTTTCGAGACGTGCTA | 1.11 z-score
TTAGGTATCCGTTTCCTTTAGTGCTAG | 1.98 z-score
GACGGTTTCGGTCTCGTGACGTGCTAG | 6.77 z-score
TTAGGTTTTGGTTTCGGTTAGTGCTAG | 8.37 z-score
TTAGGACTTCTACTGCTTTAGTGCTAG | 0.276 z-score
TTAGGATTGCTTATCCTTTAGTGCTAG | 0.373 z-score
TTAGAATTGAGTTTCGATTAGTGCTAG | 3.56 z-score
TTAGAGATCAGTCTCGATTAGTGCTAG | -0.381 z-score

A few entries again (study 3):
Oligonucleotide | RBNS enrichment (R)
UUGGAUCUGUGAACCCUGUACUGCGAGAAUCACAUAGUUCCAUAUAAGUUGUCCUUAGUCUCUUGUGCUGAUUCACUGUAUAAGCAUGAUCCUGGUAAUGCACUUUGGAU | 2.7
GAUCCAAGGCUGUUGGGCCUCUCAAGAUUUGAGAACCACAAAGCAGGAGGUGAGCAUAUUCUCUUGGUGCAGCUCCCAGCUUCAGACCUGCUGAGGGACCCUUCAACUGG | 0.526
GGUGGGCCAACCCUCAUGUCCCCCACUCCCUUGCAUUAUUUCUUUGUGUCUUGUUCAGGAGAAAAGAGGGCCUUGUUACUUUCCACUUCUCAAUAAAUGUUUGUUAUUCC | 12.7
GAAUCUUUCUCUAGGGCACCUGGGCUCACAGCCUCCCUGGGCUCGGUUGUUCCUGCUGCCAAGUGCUCUGUGACCAUGGCCUUUGCCUAGUGGAGGGAACUCAGUGGAGG | 0.328
AAUAUUACCUCAGAUACCUGUUGUCACUCUUCACAGGUUAUUUAAGUUUUUGAAGCUGGGAGGAAAAAGAUGGAGUAGCUUGGAAAGAUUCCAGCACUGAGCCGUGGGCC | 0.668
UAUUGAAAGGACGCCUCAGAAAUGCUUUGUUUUCUUUUACGAUGUAUUCAGAAGCCUUUACUGAUUAAAGUUUUCUUUUAUUUGGGUGGCCGGGAGAGACCCAGGGAGGU | 0.884
CCUGACGGGCAGCUGAGGAUUGCAGAGCCUGUCUGCCUUACGGCCAGUCGGACAGACGUCCCGCCACCCACCACCCCUCACAGGACGUCCGCUCAGCACACGCCUUGUUA | 0.616
GCCAGAAGCAUAAAAUGUGAUGAAGGUUUCUCCUGGGAACCUUAUUUUACUCUUCAUUUCAGGGUUUUCUUUUUUUUUUUACCUUCAAAGGUAGACAUUUUGGGAAUCAU | 0.846
